Assay results of several laboratories.
Compare with care: the assays were run in different laboratories. ± gives the spread as reported.
CYP2C8: Cytochrome P450 2C8 (CYP2C8, Homo sapiens, UniProt P10632)
Sequence of UniProt P10632 (whole entry, looked up): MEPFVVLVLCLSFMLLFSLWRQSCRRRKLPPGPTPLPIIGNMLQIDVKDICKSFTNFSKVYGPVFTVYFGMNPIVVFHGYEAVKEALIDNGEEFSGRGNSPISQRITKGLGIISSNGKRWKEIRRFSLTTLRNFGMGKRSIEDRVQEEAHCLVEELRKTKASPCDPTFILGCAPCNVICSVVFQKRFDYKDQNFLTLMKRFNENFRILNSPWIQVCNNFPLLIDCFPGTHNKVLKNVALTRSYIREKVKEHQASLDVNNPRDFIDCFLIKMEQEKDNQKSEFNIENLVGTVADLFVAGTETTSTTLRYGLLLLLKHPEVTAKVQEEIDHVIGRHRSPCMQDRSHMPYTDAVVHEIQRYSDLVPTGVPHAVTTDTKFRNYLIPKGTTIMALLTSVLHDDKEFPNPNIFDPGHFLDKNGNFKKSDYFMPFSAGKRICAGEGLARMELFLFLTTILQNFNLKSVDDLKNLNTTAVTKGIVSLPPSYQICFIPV
Sequence of UniProt P09936 (whole entry, looked up): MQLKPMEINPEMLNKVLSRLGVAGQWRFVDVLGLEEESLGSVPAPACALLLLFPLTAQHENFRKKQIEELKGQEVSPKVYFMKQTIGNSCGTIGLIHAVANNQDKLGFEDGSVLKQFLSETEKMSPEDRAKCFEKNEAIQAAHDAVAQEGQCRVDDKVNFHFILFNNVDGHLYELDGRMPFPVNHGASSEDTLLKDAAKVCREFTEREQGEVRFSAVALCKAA

With `CN1CCN(c2ccc(-c3ccc4nncc(Nc5cnccn5)c4c3)cc2)CC1` the EC50 was greater than 10 µM (Leishmania donovani; B10R cells).
For `Cc1cc(Nc2ccc(S(F)(F)(F)(F)F)cc2)n2nc(C(C)(F)F)nc2n1`, the Tmax was 8.1 h (Plasmodium falciparum; human malaria patients, plasma; oral, 400 mg, median).
`CCCC(=O)OCSc1ccccc1C(=O)NCCn1ccc(=O)c2cc(OC)ccc21` has an EC50 of 1.11 ± 0.93 µM (HIV-1; viral replication, measured: reverse transcriptase; human PBMC, 92HT599; 7 days).
The AUC(0-inf) of `Cc1cc(Nc2ncnc3ccc(NC4=NC(C)(C)CO4)cc23)ccc1Oc1ccn2ncnc2c1` is reported as 2650 ng·h/mL (CYP2C8; human, plasma; oral, 300 mg single dose, day 1, arithmetic mean).
The EC50 of `CC(=O)[C@]1(O)Cc2c(O)c3c(c(O)c2[C@@H](O[C@H]2C[C@H](N)[C@H](O)[C@H](C)O2)C1)C(=O)c1ccccc1C3=O` is reported as 1.6 µM (Toxoplasma gondii; parasite growth; HFF, bradyzoite, alkaline-induced).
`CN1CCN(S(=O)(=O)c2ccc(-c3ccc4nncc(Nc5ncc(Cl)cn5)c4c3)cc2)CC1` has an EC50 of 0.07 µM (Leishmania donovani; B10R cells).
For `O=[N+]([O-])c1ccc2c(c1)S(=O)(=O)C=C2`, the EC50 was 4.34 µM (Toxoplasma gondii; parasite growth, luciferase reporter; HFF, tachyzoite; 72 h).
For `CCCC(=O)OCSc1ccccc1C(=O)NCCn1cc(C(=O)NCc2ncccn2)c(=O)c2cc3c(cc21)OCO3`, the EC50 was 1.85 ± 0.11 µM (HIV-1; virus-induced cytopathic effect, inhibitor, XTT; CEM-SS, RF; 6 days).
With `O=C(Nc1ccncc1)c1cc([N+](=O)[O-])ccc1Cl` the EC50 was 0.87 µM (Toxoplasma gondii; tachyzoite growth, luciferase; ME49-Fluc, type II).
Under “AUC(0-t) geometric mean”, `CC[C@H]1[C@@H](O)[C@@H]2[C@H](CC[C@]3(C)[C@@H]([C@H](C)CCNC(=O)NS(=O)(=O)c4ccc(C(C)(C)C)cc4)CC[C@@H]23)[C@@]2(C)CC[C@@H](O)C[C@@H]12` is recorded as 350 ng·h/mL (ABCB1 (Homo sapiens, UniProt P08183); substrate; human, plasma; dose not given, alone).
For `O=c1[nH]cnc2c1nnn2[C@@H]1C(F)=C(CO)[C@@H](O)[C@H]1O`, the EC50 was greater than 100 µM (dengue virus type 2; viral replication, luciferase reporter; BHK-D2-Rluc; 48 h).
`CC(C)C[C@H](NC(=O)C[C@H](O)[C@H](CC(C)C)NC(=O)[C@H](Cc1c[nH]cn1)NC(=O)CNC(=O)[C@@H](NC(=O)[C@H](C)NC(=O)[C@H](Cc1c[nH]c2ccccc12)NC(=O)[C@H](CCC(N)=O)NC(=O)[C@@H](Cc1ccccc1)NC(=O)COCCOCCNC(=O)CCC(C(=O)O)N1CCN(CC(=O)O)CCN(CC(=O)O)CCN(CC(=O)O)CC1)C(C)C)C(N)=O` (stereo partly drawn) [lutetium-177 labelled] gave a tissue uptake of 4.2 ± 0.6 %ID/g (BALB/c nu/nu mice, kidneys; intravenous, 100 pmol, 1 h, added: PA 300 µg).
`Nc1nc(N)c2nnn([C@@H]3C(F)=C(CO)[C@@H](O)[C@H]3O)c2n1` has an EC50 of greater than 100 µM (dengue virus type 2; viral replication, luciferase reporter; BHK-D2-Rluc; 48 h).
With `Cc1cc(OC(C)C)ccc1C(=O)C(C)(C)NC(=O)c1sccc1C` the EC50 was 0.07 µg/mL (Plenodomus lingam; mycelial growth; PSA medium; 20 °C, suspension concentrate 400 g/L).
With `COc1ccc(Nc2cnnc3cc(-c4ccc(N5CCN(C)CC5)cc4)ccc23)nc1` the EC50 was 0.19 µM (Leishmania donovani; B10R cells).
`Cn1cc(-c2ccc(-c3cncc(Cl)c3N3CCC4(CCNC4=O)CC3)cc2)cn1`: “log2 fold change” 3.3 (COLO 205; gene expression, microarray, measured: IFIT2 mRNA; concentration not given, 2 h; baseline: untreated cells).
`OC(CCN1CCCCC1)(c1ccccc1)C1CC2C=CC1C2` (stereo not drawn): “change in EEG Beta2-power Fz-Cz” -8.6% (resting-state EEG; healthy elderly humans; oral, 2 mg, eyes closed, LS mean; baseline: baseline).
With `CN1CCCN(c2ncc(-c3ccc4nncc(Nc5cnccn5)c4c3)cn2)CC1` the EC50 was greater than 10 µM (Leishmania donovani; B10R cells).
For `CC(C)[C@H](NC(=O)[C@H](Cc1ccc(O)cc1)NC(=O)[C@H](Cc1ccc(O)cc1)NC(=O)[C@@H]1CCCN1C(=O)[C@H](CCC(=O)O)NC(=O)[C@H](CCC(=O)O)NC(=O)[C@H](Cc1c[nH]c2ccccc12)NC(=O)[C@@H]1CCCN1C(=O)[C@@H](NC(=O)[C@H](CCC(N)=O)NC(=O)c1ccc2c(c1)C(=O)OC21c2ccc(O)cc2Oc2cc(O)ccc21)C(C)C)C(=O)N[C@H](C(=O)N[C@@H](CCCCN)C(=O)N[C@@H](CCCCN)C(=O)N[C@@H](CO)C(=O)N[C@@H](CO)C(=O)NCC(=O)NCC(N)=O)C(C)C`, plasma concentration read “not detected” (human, plasma; intravenous infusion, 600 mg, predose, day 1).
`O=C(c1ccc(Nc2nccc(-c3cc4ccccc4s3)n2)cc1)N1CCC(N2CCCC2)CC1` gave an EC50 of 3.44 µM (Toxoplasma gondii; parasite growth; HFF, bradyzoite, alkaline-induced).
`Nc1ccn(C[C@@H](CO)OCP(=O)(O)O)c(=O)n1` gave an EC50 of 0.52 µM (varicella-zoster virus; cytopathic effect; HFF, Ellen; 14 d).
For `c1coc(-c2n[nH]cc2-c2ccnc3ccccc23)c1`, “log2 fold change” read -0.17 (RCK2 (Candida albicans); kinase binding, MIB/MS competition; Candida albicans lysate; 10 µM; baseline: DMSO).
For `O=C(CCl)NC(Cc1ccccc1)c1ccccc1F` (stereo not drawn), the labelling was 17.7% (UCHL1 (Homo sapiens, UniProt P09936); covalent, intact protein LC-MS; 12.5 µM).
The EC50 of `CCCC(=O)OCSc1ccccc1C(=O)NCC(=O)NCCn1ccc(=O)c2cc3c(cc21)OCO3` is reported as 75.4 ± 9.2 µM (HIV-1; virus-induced cytopathic effect, inhibitor, XTT; CEM-SS, RF; 6 days).
`CN1CCN(c2ncc(-c3ccc4c(Nc5ncccn5)cnnc4c3)cn2)CC1` has an EC50 of 8.9 µM (Leishmania donovani; B10R cells).
With `O=C1c2ccccc2C(=O)c2c(NCCc3ccc(O)cc3)ccc(NCCc3ccc(O)cc3)c21` the EC50 was 4.48 µM (Toxoplasma gondii; bradyzoite growth; glutamine-induced bradyzoites, glucose-free medium).
`CC(C)/N=c1\cc2n(-c3ccc(Cl)cc3)c3ccccc3nc-2cc1Nc1ccc(Cl)cc1` has an inhibition of -5% (Trypanosoma cruzi; reporter translation, Renilla luciferase mRNA translation; cell-free extract; 40 µM; baseline: DMSO).
`O=c1[nH]cc(F)c(=O)[nH]1` has an EC50 of 1.62 µM (Toxoplasma gondii; parasite growth; HFF, bradyzoite, glutamine-induced).
With `Cc1cn([C@H]2C[C@H](N=[N+]=[N-])[C@@H](CO)O2)c(=O)[nH]c1=O` the EC50 was 0.02 ± 0.01 µM (HIV-1; viral cytopathic effect, XTT; CEM-SS, RF; no added glutathione).
For `Cc1ccc(S(=O)(=O)/C=C/C#N)cc1`, the EC50 was 5.07 µM (Toxoplasma gondii; parasite growth; HFF, bradyzoite, alkaline-induced).
`CCCC(=O)OCSc1ccccc1C(=O)NCCn1cc(C(=O)NCc2ccccn2)c(=O)c2cc3c(cc21)OCO3` has an EC50 of 0.6 ± 0.32 µM (HIV-1; viral replication; human PBMC, 92RW009).
`CN1CCN(c2ccc(-c3ccc4c(Nc5cnccn5)cnnc4c3)cc2)CC1` gave an EC50 of 6.6 µM (Leishmania donovani; B10R cells).
For `CCCC(=O)OCSc1ccccc1C(=O)NCCn1cc(C(=O)NCc2cccc(C)n2)c(=O)c2cc3c(cc21)OCO3`, the EC50 was 1.28 ± 0.29 µM (HIV-1; viral replication; human PBMC, 92RW009).
`CCOc1cc(CC(=O)N[C@@H](CC(C)C)c2ccccc2N2CCCCC2)ccc1C(=O)O` has a mean half-life of 2.19 h (CYP2C8; substrate; human, plasma; 0.5 mg, day 1).
`CN1CCN(c2ccc(-c3ccc4nncc(Nc5ncccn5)c4c3)cc2)CC1` has an EC50 of 2.5 µM (Leishmania donovani; B10R cells).
For `CCCC(=O)OCSc1ccccc1C(=O)NCCOc1ccnc2ccc(F)cc12`, the EC50 was greater than 15.5 µM (HIV-1; virus-induced cytopathic effect, inhibitor, XTT; CEM-SS, RF; 6 days).
For `Oc1ccccc1-c1n[nH]cc1-c1ccnc2ccccc12`, “log2 fold change” read -0.44 (FUN31 (Candida albicans); kinase binding, MIB/MS competition; Candida albicans lysate; 10 µM; baseline: DMSO).
For `CN1CCN(c2ncc(-c3ccc4nncc(Nc5ncccn5)c4c3)cn2)CC1`, the EC50 was greater than 10 µM (Leishmania donovani; B10R cells).
`COCC(=O)N1CCCC(C(=O)NCc2nc(-c3ccccc3)cs2)C1` (racemic) has an EC50 of 0.13 µM (Plasmodium falciparum; intermittent drug pressure cycling; Dd2_B2 bulk culture after selection; flask 3, pulse 1).
`CNc1ncnc2c1nnn2[C@@H]1C(F)=C(CO)[C@@H](O)[C@H]1O` gave an EC50 of greater than 100 µM (dengue virus type 2; viral replication, luciferase reporter; BHK-D2-Rluc; 48 h).
`COC(=O)C1=C(C)NC(C)=C(C(=O)OC(C)(C)CN(C)CCC(c2ccccc2)c2ccccc2)C1c1cccc([N+](=O)[O-])c1` (stereo not drawn) has an EC50 of 9.34 µM (Toxoplasma gondii; parasite growth, luciferase reporter; HFF, tachyzoite; 72 h).
With `CCCC(=O)OCSc1ccccc1C(=O)NCCn1cc(C(=O)NCc2cccc(C)n2)c(=O)c2cc3c(cc21)OC(F)(F)O3` the EC50 was 1.38 ± 0.48 µM (HIV-1; virus-induced cytopathic effect, inhibitor, XTT; CEM-SS, RF; 6 days).

Excerpt of the above:
The EC50 of `CCCC(=O)OCSc1ccccc1C(=O)NCC(=O)NCCn1ccc(=O)c2cc3c(cc21)OCO3` is reported as 75.4 ± 9.2 µM (HIV-1; virus-induced cytopathic effect, inhibitor, XTT; CEM-SS, RF; 6 days).
Under “AUC(0-t) geometric mean”, `CC[C@H]1[C@@H](O)[C@@H]2[C@H](CC[C@]3(C)[C@@H]([C@H](C)CCNC(=O)NS(=O)(=O)c4ccc(C(C)(C)C)cc4)CC[C@@H]23)[C@@]2(C)CC[C@@H](O)C[C@@H]12` is recorded as 350 ng·h/mL (ABCB1 (Homo sapiens, UniProt P08183); substrate; human, plasma; dose not given, alone).
With `COc1ccc(Nc2cnnc3cc(-c4ccc(N5CCN(C)CC5)cc4)ccc23)nc1` the EC50 was 0.19 µM (Leishmania donovani; B10R cells).
For `O=[N+]([O-])c1ccc2c(c1)S(=O)(=O)C=C2`, the EC50 was 4.34 µM (Toxoplasma gondii; parasite growth, luciferase reporter; HFF, tachyzoite; 72 h).
`Nc1nc(N)c2nnn([C@@H]3C(F)=C(CO)[C@@H](O)[C@H]3O)c2n1` has an EC50 of greater than 100 µM (dengue virus type 2; viral replication, luciferase reporter; BHK-D2-Rluc; 48 h).
